# Measured values pooled from the literature.
# A part holds a random share of what one study measured. “And” joins repeats or separate records; there may be more than shown.
# Sequence of UniProt Q9UJQ4 (whole entry, looked up): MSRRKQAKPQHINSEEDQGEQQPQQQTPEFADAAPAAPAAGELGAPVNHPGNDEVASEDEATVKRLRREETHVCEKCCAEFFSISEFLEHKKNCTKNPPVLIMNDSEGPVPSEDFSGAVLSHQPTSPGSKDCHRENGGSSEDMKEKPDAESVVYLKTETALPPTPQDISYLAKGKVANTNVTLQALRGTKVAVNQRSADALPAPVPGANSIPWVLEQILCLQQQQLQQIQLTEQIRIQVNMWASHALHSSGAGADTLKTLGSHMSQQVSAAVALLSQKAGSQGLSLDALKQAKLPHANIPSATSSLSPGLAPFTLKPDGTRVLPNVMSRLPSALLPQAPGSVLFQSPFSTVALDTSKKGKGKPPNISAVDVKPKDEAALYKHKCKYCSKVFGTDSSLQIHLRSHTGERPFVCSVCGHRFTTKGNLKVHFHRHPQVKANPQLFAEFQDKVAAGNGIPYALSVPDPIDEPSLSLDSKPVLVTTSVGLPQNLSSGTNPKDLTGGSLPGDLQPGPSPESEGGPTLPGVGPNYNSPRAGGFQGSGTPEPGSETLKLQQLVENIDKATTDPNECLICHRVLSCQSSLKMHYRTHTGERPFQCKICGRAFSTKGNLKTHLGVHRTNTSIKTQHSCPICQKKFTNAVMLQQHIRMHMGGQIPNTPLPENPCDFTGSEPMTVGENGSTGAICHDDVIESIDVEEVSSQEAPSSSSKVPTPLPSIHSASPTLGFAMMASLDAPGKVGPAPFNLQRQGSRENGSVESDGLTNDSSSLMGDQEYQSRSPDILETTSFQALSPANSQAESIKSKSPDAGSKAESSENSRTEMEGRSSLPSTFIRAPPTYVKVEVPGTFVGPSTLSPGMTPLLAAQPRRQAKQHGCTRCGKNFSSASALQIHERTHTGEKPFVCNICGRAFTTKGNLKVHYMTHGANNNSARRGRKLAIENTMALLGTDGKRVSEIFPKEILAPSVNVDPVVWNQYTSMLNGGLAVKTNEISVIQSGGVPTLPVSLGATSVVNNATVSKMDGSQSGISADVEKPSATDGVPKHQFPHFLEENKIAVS
# Sequence of UniProt Q9UKT9 (whole entry, looked up): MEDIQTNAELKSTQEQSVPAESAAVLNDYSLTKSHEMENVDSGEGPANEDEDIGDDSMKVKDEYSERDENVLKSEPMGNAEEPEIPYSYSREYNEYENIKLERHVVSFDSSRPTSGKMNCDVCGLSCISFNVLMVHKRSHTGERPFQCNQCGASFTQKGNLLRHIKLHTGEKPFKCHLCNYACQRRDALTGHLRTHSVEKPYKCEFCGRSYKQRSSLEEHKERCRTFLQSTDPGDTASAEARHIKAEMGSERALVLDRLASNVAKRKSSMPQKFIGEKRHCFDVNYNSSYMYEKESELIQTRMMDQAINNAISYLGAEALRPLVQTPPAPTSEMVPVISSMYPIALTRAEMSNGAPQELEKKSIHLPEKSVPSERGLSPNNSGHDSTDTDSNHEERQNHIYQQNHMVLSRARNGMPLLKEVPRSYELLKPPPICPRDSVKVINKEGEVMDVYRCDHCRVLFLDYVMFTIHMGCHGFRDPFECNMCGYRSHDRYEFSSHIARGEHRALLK
# Sequence of UniProt Q9Y5S2 (whole entry, looked up): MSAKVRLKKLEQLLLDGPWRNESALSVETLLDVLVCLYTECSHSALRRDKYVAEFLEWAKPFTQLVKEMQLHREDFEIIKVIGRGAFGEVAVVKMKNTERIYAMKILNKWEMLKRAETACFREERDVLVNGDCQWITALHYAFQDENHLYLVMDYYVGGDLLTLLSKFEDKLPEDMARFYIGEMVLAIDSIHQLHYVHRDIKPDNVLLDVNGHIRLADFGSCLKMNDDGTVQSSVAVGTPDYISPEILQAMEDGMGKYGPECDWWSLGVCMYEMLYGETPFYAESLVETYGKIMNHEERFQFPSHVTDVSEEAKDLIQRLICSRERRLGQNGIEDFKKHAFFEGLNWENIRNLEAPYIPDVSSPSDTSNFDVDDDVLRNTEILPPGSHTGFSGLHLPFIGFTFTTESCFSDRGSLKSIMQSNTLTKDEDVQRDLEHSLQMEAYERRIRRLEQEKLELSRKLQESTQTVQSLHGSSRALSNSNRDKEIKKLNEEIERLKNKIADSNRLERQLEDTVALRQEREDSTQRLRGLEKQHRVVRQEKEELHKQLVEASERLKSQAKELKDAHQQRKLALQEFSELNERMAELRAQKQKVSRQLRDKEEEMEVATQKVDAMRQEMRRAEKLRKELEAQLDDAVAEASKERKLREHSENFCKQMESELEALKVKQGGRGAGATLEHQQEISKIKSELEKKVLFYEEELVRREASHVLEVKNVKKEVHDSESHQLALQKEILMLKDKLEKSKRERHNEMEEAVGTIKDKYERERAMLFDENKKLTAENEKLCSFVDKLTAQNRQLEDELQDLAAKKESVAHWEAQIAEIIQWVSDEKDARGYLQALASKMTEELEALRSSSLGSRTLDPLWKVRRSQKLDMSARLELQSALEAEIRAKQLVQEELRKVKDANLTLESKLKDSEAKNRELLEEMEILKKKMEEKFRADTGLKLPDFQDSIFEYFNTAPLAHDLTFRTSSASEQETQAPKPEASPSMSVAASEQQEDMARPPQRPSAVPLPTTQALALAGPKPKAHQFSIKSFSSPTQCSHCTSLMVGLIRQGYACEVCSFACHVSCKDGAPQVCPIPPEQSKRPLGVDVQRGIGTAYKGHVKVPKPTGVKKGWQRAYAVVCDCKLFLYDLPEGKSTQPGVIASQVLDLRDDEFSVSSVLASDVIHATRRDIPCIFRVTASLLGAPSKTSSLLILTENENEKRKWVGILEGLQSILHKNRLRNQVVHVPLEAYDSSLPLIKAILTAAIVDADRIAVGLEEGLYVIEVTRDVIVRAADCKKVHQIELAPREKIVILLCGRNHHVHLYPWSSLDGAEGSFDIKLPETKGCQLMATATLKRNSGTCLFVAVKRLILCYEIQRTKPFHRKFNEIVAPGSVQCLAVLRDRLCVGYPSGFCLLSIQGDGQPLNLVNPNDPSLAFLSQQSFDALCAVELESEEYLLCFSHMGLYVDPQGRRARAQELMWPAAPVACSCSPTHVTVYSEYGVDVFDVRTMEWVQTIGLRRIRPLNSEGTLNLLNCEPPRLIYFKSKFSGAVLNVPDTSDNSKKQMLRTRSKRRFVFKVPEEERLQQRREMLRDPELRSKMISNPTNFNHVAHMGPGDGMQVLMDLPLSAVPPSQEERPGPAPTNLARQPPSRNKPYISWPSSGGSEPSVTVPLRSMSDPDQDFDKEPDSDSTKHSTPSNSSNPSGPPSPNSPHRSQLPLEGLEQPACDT
# Sequence of UniProt Q9H3Y6 (whole entry, looked up): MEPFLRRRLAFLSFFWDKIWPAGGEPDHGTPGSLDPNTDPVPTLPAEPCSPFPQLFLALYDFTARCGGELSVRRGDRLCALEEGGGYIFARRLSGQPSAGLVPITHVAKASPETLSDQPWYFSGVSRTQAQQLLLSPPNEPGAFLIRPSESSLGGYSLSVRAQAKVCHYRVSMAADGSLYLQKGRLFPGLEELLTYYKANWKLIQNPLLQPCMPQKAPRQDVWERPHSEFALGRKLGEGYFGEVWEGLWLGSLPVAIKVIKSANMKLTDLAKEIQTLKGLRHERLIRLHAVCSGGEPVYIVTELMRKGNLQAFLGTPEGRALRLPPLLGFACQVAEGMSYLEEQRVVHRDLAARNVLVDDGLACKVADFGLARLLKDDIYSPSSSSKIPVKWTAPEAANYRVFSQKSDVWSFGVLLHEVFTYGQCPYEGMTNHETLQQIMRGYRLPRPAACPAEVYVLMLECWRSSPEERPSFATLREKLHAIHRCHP
# Sequence of UniProt O15264 (whole entry, looked up): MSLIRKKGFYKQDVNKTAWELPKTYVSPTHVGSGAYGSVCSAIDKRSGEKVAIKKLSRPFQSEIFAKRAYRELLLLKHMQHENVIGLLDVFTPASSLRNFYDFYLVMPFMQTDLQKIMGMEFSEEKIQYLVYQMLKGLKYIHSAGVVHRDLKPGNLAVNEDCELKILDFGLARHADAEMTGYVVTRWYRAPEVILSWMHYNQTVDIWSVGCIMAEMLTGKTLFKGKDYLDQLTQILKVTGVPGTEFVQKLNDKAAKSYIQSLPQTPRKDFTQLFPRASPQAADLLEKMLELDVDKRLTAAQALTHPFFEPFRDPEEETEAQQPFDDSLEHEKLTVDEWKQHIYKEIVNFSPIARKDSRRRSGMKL

# Sample 1
# Compound: CC#CC(=O)N1CCC[C@H]1c1nc(-c2ccc(C(=O)Nc3ccccn3)cc2)c2c(N)nccn12
# Effect on: enzyme activity
# Action: inhibitor
# Concentration: 1 µM
target,inhibition [%]
"NUAK1 (Homo sapiens, UniProt O60285)",0
"MAP3K11 (Homo sapiens, UniProt Q16584)",0
"NTRK2 (Homo sapiens, UniProt Q16620)",0
"PLK4 (Homo sapiens, UniProt O00444)",11
"RIPK2 (Homo sapiens, UniProt O43353)",56
"PIP4K2C (Homo sapiens, UniProt Q8TBX8)",0
"WNK2 (Homo sapiens, UniProt Q9Y3S1)",29

# Sample 2
# Target: Proto-oncogene tyrosine-protein kinase Src (SRC, Homo sapiens, UniProt P12931)
# Effect on: enzyme activity
# Action: inhibitor
# Concentration: 0.5 µM
# Reference: control
SMILES,remaining activity [%]
Nc1ncnc2n[nH]c(Nc3ccc(F)cc3)c12,89.6
O=C(CCCc1ccc(-c2ccccc2F)cc1)Nc1ccc(O)cc1,93.7
Cc1ccc(Nc2nccc(N(C)c3ccc4c(C)n(C)nc4c3)n2)cc1S(N)(=O)=O,70.7
CCOC(=O)c1c(C)[nH]c(/C=C2\C(=O)Nc3ccccc32)c1C,93.8
CN(C)c1ccc(C=C2C(=O)Nc3ccccc32)cc1,102
NCCNc1ncc(C(N)=O)c(Nc2cccc(C(F)(F)F)c2)n1,71.8
O=C(Nc1cccc(Nc2cc(Nc3cccc(C(F)(F)F)c3)ncn2)c1)C1CC1,102
COc1cc2ncnc(Nc3ccc(Oc4ccccc4)cc3)c2cc1OC,82.8
Oc1ccc(-c2nc(-c3ccncc3)c(-c3ccc(F)cc3)[nH]2)cc1,85.9
Cc1cccc(-c2[nH]c(C(C)(C)C)nc2-c2ccc3c(c2)OCO3)n1,96
COc1ccc(OC)c2c(=S)c3ccccc3[nH]c12,90.6
Cn1sc(=O)n(Cc2ccccc2)c1=O,95
Nc1ccc2ncnc(NCCc3ccc(Oc4ccccc4)cc3)c2c1,102
Cc1ccc(NC(=O)c2ccc(CN3CCN(C)CC3)cc2)cc1Nc1nc(-c2cccnc2)cs1,80
Cc1nc(-c2ccccc2)c(-c2ccncc2)o1,96.2

# Sample 3
# SMILES: C[C@H]1CC[C@H](n2c3cnccc3c3cnc(Nc4ccc5c(n4)CCN(C(=O)CO)C5)nc32)CC1
# Method: competition with immobilised ligand
# Concentration: 1 µM
target,test,remaining binding [%]
"TAOK1 (Homo sapiens, UniProt Q7L7X3)",binding,68
"Ribosomal protein S6 kinase alpha-1, N-terminal kinase domain (RPS6KA1, Homo sapiens, UniProt Q15418)",binding,12
"SBK1 (Homo sapiens, UniProt Q52WX2)",binding,91
"SRMS (Homo sapiens, UniProt Q9H3Y6)",cell-free assay,89
"MAP3K19 (Homo sapiens, UniProt Q56UN5)",binding,44
"CDC42BPB (Homo sapiens, UniProt Q9Y5S2)",cell-free assay,91
"MAPK13 (Homo sapiens, UniProt O15264)",binding,100

# Sample 4
# Structure (SMILES): O=C1CCC(N2Cc3cc(C4CCN(Cc5ccccc5)CC4)ccc3C2=O)C(=O)N1 (stereo not drawn)
# Action: degrader
# CSNK1A1: Casein kinase I isoform alpha (CSNK1A1, Homo sapiens, UniProt P48729)
# Sequence of UniProt P48729 (whole entry, looked up): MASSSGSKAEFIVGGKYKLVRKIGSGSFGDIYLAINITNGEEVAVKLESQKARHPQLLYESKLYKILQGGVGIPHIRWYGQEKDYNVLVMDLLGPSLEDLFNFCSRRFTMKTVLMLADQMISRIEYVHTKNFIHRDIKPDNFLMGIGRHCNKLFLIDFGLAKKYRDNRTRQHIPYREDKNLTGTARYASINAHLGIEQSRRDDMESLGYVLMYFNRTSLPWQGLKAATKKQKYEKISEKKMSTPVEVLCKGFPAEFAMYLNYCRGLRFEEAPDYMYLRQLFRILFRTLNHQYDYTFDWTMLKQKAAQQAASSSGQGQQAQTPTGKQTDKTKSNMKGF
target,test,test system,conditions,remaining protein
"CRBN/Zinc finger protein Helios (Homo sapiens, UniProt Q96SW2+Q9UKS7)",flow cytometry,primary human regulatory T cells,"5.08e-05 µM, 3 h",101%
CSNK1A1,HiBiT,HEK293,"0.1235 µM, 6 h",91.6%
"Sal-like protein 4 (SALL4, Homo sapiens, UniProt Q9UJQ4)",HiBiT,HEK293,3.333 µM,48.9% and 46.1%
CSNK1A1,HiBiT,HEK293 HiBiT-CK1α,10000 nM,94.7% and 88.5%
"Zinc finger protein Aiolos (Homo sapiens, UniProt Q9UKT9)",HiBiT,HEK293,1.111 µM,85% and 82.1%
CSNK1A1,HiBiT,HEK293,"10 µM, 6 h",94.7%

# Further values, each from its own experiment
SMILES,target,test,conditions,quantity,result
COc1cc(-c2cn(C3CCc4c(F)cccc4N(CC(F)(F)F)C3=O)nn2)ccc1-n1cnc(C)c1 (stereo not drawn),"5-hydroxytryptamine receptor 5A (HTR5A, Homo sapiens, UniProt P47898)",ligand displacement,10 µM,inhibition,7.61%

# Repeated from above (sample 2):
SMILES,remaining activity [%]
COc1cc2ncnc(Nc3ccc(Oc4ccccc4)cc3)c2cc1OC,82.8
Oc1ccc(-c2nc(-c3ccncc3)c(-c3ccc(F)cc3)[nH]2)cc1,85.9
